Experimental data pooled from the literature.
Protocols differ between the studies behind these lines. Values joined by “and” are separate records of one study, mostly repeats; a detail may differ. ± gives the spread as reported.

CCCCCCCCCCCCCCCCCCOc1c(O)cc(C(=O)O[C@@H]2Cc3c(O)cc(O)cc3O[C@@H]2c2cc(O)c(O)c(O)c2)cc1O
IC50 (A-431; cell growth or viability, CCK-8; 24 h): 94.6 µM

Cn1cc(-c2cc(N3CCCCS3(=O)=O)ccc2N[C@H]2CC[C@](C)(O)CC2)c2cc[nH]c2c1=O
IC50 (Light II cells; GLI reporter gene, inhibitor; Hedgehog pathway): 0.00134 ± 0.00048 µM

CCC(CC)CNC(=N)NC(=N)NCCCCCCNC(=N)NC(=N)NCC(CC)CC
IC50 (NCI-H1299; cell growth or viability, SRB; 72 h): 0.6 µM

COc1cc(NC(=O)c2ccccc2Cl)ccc1C(=O)Nc1ccc(Cl)c(-c2nc3ccccc3[nH]2)c1
IC50 (NIH3T3-Gli-Luc; Hedgehog signalling, Gli-luciferase reporter; together with: Shh-conditioned medium): 0.17 ± 0.06 µM

N=C(N)NCCC[C@H](N)C(=O)N[C@H](CC(=O)N[C@@H](Cc1ccc(O)cc1)C(=O)O)c1cccc2ccccc12
IC50 (BT-474 (HER2-overexpressing)): > 50 µM

CC(=O)Oc1ccc(/C=C/C(=O)Nc2nc(=O)n([C@@H]3O[C@H](C)[C@@H](OC(C)=O)[C@H]3OC(C)=O)cc2F)cc1OC(C)=O
IC50 (AsPC-1; cell viability, MTT; 72 h): 90.1 µM and 90 µM

CC(=O)Oc1ccccc1C(=O)[O][Pt]([NH2])([NH2])([Cl])([Cl])[O]C(=O)C(Cl)Cl
IC50 (PSN1 3D spheroids): 3.73 ± 0.35 µM

[Cl][Au].[Se]=c1n(C23CC4CC(CC(C4)C2)C3)ccn1C12CC3CC(CC(C3)C1)C2
IC50 (A-431; cell growth or viability, MTT; 72 h): 3.3 µM

C[N+]1(C)CC[NH2+][Pt-2]1([OH])([OH])([Cl])[Cl]
IC50 (CH1; cell growth or viability, MTT; 96 h): 3.3 µM

N=C(N/N=C/c1ccc(F)cc1)N/N=C/c1ccc(F)cc1
IC50 (IMR-90; cell growth or viability, crystal violet; 72 h): 16.3 µM

CC(C)=CCC1=C([O-])C(=O)c2ccccc2C1=O.O=[N+]([O-])[O-].[Cu+2].c1ccc(-c2cccc(-c3ccccn3)n2)nc1
IC50 (A2780; cell viability, MTT; 24 h): 7.1 ± 0.6 µM

CC(C)N(CCC1CC2CN(Cc3ccc(S(C)(=O)=O)cc3)CC2C1)C[C@H]1O[C@@H](n2cnc3c(N)ncnc32)[C@H](O)[C@@H]1O (some centres unmarked)
IC50 (H460 R231Q; cell proliferation, CCK-8; 72 h): > 100 µM

CCc1nnc(NC(=O)c2cccc(C(=O)Nc3nnc(CC)s3)n2)s1
IC50 (LDR; cell viability, MTS; 4 days): 3.6 µM

COC(=O)[C@@H]1[C@@H](OC)[C@H](OC(=O)c2cc(OC)c(OC)c(OC)c2)C[C@@H]2CN3CC[C@]4(O[C@@H]3C(=O)[C@@H]21)C(=O)Nc1cc(OC)c(-c2ccc(C(F)(F)F)cc2)cc14
IC50 (CAPAN-1; cell growth or viability, crystal violet; 72 h): 4.21 µM

CO[C@@H]1[C@@H](O[C@@H]2O[C@H](C)[C@@H](O[C@H]3C[C@@](C)(O)[C@@H](OC(=O)c4ccccc4)[C@H](C)O3)[C@H](N(C)C)[C@H]2O)[C@@H](CC=O)C[C@@H](C)[C@@H](O[C@H]2CC[C@H](N(C)C)[C@@H](C)O2)/C=C/C=C/C[C@@H](C)OC(=O)C[C@H]1O
IC50 (HGC-27; cell growth or viability, CCK-8; 72 h): 5.31 µM

CN(C)C(CNC(=O)Nc1cc(C(F)(F)F)ccc1N1CCOCC1)c1ccncc1 (centres unmarked)
IC50 (IMR-90; cell growth or viability, crystal violet; 48 h): 1000 µM

CCC(C(=O)O)C1CCC(C)C(C(C)C(O)C(C)C(=O)C(CC)C2OC3(C=CC(NCc4cn(C56CC7CC(CC(C7)C5)C6)nn4)C4(CCC(C)(C5CCC(O)(CC)C(C)O5)O4)O3)C(C)CC2C)O1 (centres unmarked)
IC50 (HMLER CD24high/CD44low; cell viability, CellTiter-Blue; 72 h): 0.45 ± 0.05 µM

CCCCCCCCC=CCCCCCCCC(=O)OCC1OC(n2ccc(N)nc2=O)C(F)(F)C1O (centres unmarked)
IC50 (C26-G (mouse, gemcitabine-resistant); cell growth, SRB; 72 h): 0.03 ± 0.02 µM

CC1=CC[C@]2(C(=O)O[C@H]3OC[C@@H](O)[C@@H](O)[C@@H]3OS(=O)(=O)O)CC[C@]3(C)C(CCC4[C@@]5(C)CC[C@H](O)C(C)(C)C5CC[C@]43C)C2[C@H]1C (some centres unmarked)
IC50 (WISH; cell growth or viability, MTT): 46.8 µM

Cc1ccc(/C=N/N=C(\S)Nc2cccc(S(=O)(=O)N(C)C)c2)o1
IC50 (HCC4017; cell growth or viability, MTS; 96 h): 40 µM

Cn1cc(-c2cc(N3CCCCS3(=O)=O)ccc2N[C@H]2CC[C@H](C)CC2)c2cc[nH]c2c1=O (stereo in doubt)
IC50 (Light II cells; GLI reporter gene, inhibitor; Hedgehog pathway): 0.00033 ± 0.00013 µM

Oc1c(/N=N/c2ccccn2)ccc2ccccc12
IC50 (HCC4017; cell growth or viability, MTS; 96 h): 6.5 µM

N=C(N/N=C/c1cc2ccccc2c2ccccc12)N/N=C/c1cc2ccccc2c2ccccc12
IC50 (IMR-90; cell growth or viability, crystal violet; 72 h): 190 µM

Cc1ccc(CC(=O)N(CCCn2ccnc2)c2nc3ccccc3s2)c(C)c1
IC50 (SW620 organoids; vimentin reporter GFP): > 40 µM

C[O][Pt-2]1([Cl])([Cl])([O]C(=O)CCC(=O)O)[NH2+]CC[N+]1(C)C
IC50 (CH1; cell growth or viability, MTT; 96 h): 12 µM

Cl.[Cl][Ru-]1[S+]=C(N2CCCC2)N[N+]1=Cc1ccc(N(c2ccccc2)c2ccccc2)cc1.c1ccccc1
IC50 (IMR-90; cell viability, MTT; 24 h): 39 ± 4.7 µM

C=C(C)[C@@H]1CC[C@]2(C(=O)OCO/N=[N+](\[O-])N3CCCC3)CC[C@]3(C)[C@H](CC[C@@H]4[C@@]5(C)CC[C@H](OC(C)=O)C(C)(C)[C@@H]5CC[C@]43C)[C@@H]12
IC50 (B16-F10; cell growth or viability, MTT; 72 h): 0.89 µM

C[C@]12CC/C(=N/O)C=C1CCC1C2CC[C@]2(C)/C(=C/c3ccccn3)CCC12 (some centres unmarked)
IC50 (G-361; cell growth or viability, resazurin; 72 h): 46.6 µM

CC(=O)O[C@@H]1C[C@H]2C(C)(C)[C@H](O)CC[C@]2(C)[C@H]2CC[C@@]3(C)C(=CC[C@H]3[C@@H](C)C[C@@H](O)[C@H](O)C(C)(C)O)[C@@]21C
IC50 (fibroblasts; cytotoxicity, MTT): > 30 µM

COc1nc(Nc2nc(O)c3ccccc3n2)nc2ccc(C)cc12
IC50 (HCC4017; cell growth or viability, MTS; 96 h): 16 µM

Cc1ccc(C(C)C)cc1.Cc1ncc(CO)c(C=NNC2=Nc3ccccc3-c3[nH]c4ccc(Br)cc4c3C2)c1O.[Cl-].[Cl][Os+]
IC50 (CH1; cell growth or viability, MTT; 96 h): 3.3 µM

COc1ccc(NC(=O)O[C@H]2[C@H](C)O[C@@H](O[C@H]3[C@H](N(C)C)[C@@H](O)[C@H](O[C@H]4[C@@H](CC=O)C[C@@H](C)[C@@H](O[C@H]5CC[C@H](N(C)C)[C@@H](C)O5)/C=C/C=C/C[C@@H](C)OC(=O)C[C@@H](O)[C@@H]4OC)O[C@@H]3C)C[C@@]2(C)O)cc1
IC50 (HGC-27; cell growth or viability, CCK-8; 72 h): > 50 µM

COc1ccc(NC(=O)CSc2nc3c(oc4ccccc43)c(=O)n2Cc2ccco2)cc1Cl
IC50 (HCC4017; cell growth or viability, MTS; 96 h): > 50 µM

CCCCCCC[C@@H](CC(=O)O)OC(=O)C[C@@H](CCCCCCC)O[C@@H]1O[C@@H](C)[C@H](O)[C@@H](O)[C@H]1O
IC50 (H1299; cytotoxicity, xCELLigence; 72 h): 191 ± 17.5 µM

CC(=O)OC[C@H]1O[C@@H](NC(=O)NC(=O)/C=C/c2ccc(C(C)C)cc2)[C@H](OC(C)=O)[C@@H](OC(C)=O)[C@@H]1OC(C)=O
IC50 (L1210, CEM and HeLa; cell growth; range over three cell lines): 16 to 45 µM

A few entries again:
C[C@]12CC/C(=N/O)C=C1CCC1C2CC[C@]2(C)/C(=C/c3ccccn3)CCC12 (some centres unmarked)
IC50 (G-361; cell growth or viability, resazurin; 72 h): 46.6 µM

CC(=O)O[C@@H]1C[C@H]2C(C)(C)[C@H](O)CC[C@]2(C)[C@H]2CC[C@@]3(C)C(=CC[C@H]3[C@@H](C)C[C@@H](O)[C@H](O)C(C)(C)O)[C@@]21C
IC50 (fibroblasts; cytotoxicity, MTT): > 30 µM

COc1nc(Nc2nc(O)c3ccccc3n2)nc2ccc(C)cc12
IC50 (HCC4017; cell growth or viability, MTS; 96 h): 16 µM

Cc1ccc(C(C)C)cc1.Cc1ncc(CO)c(C=NNC2=Nc3ccccc3-c3[nH]c4ccc(Br)cc4c3C2)c1O.[Cl-].[Cl][Os+]
IC50 (CH1; cell growth or viability, MTT; 96 h): 3.3 µM
